Experimental data of several laboratories.
Lines come from different studies, so protocols differ. “And” joins repeats or separate records; there may be more than shown. ± gives the spread as reported. ≈ marks a conversion by molar mass, not a printed value.

| SMILES | tested on | test | system | conditions | how to read | endpoint | result |
| --- | --- | --- | --- | --- | --- | --- | --- |
| CCCCC1(CCCC)CN(c2ccccc2)c2cc(SC)c(OCC(=O)N[C@@H](C(=O)NCC(=O)O)c3ccccc3)cc2S(=O)(=O)C1 |  | item: HDL cholesterol | human, serum | 10 mg once daily, day 2 |  | serum HDL-C | 51.1 mg/dL |
| CC1=C(C)C(=O)C(CCCCC#CCCCC#CCO)=C(C)C1=O | Plasmodium falciparum |  | 3D7 |  |  | IC50 | 7.94 µM |
| Clc1cc2c(cc1Cl)Oc1cc(Cl)c(Cl)cc1O2 |  | RNA-Seq, item: Ptger4 | Sprague-Dawley rat, female, liver | 10 µg/kg | baseline: vehicle | mRNA fold change | 1.7 fold |
| Oc1c(Br)cc(Br)cc1Oc1ccc(Br)cc1Br |  | glucuronidation | human liver microsomes |  |  | Vmax/Km | 274 ± 125 µL/min/mg |
| N=C(N)NCCC[C@H](NC(=O)CCCCCNC(=O)[C@H](CCCNC(=N)N)NC(=O)[C@H](CCCNC(=N)N)NC(=O)CCCCCNC(=O)[C@H](CCCNC(=N)N)NC(=O)[C@H](CCCNC(=N)N)NC(=O)CCCCCNC(=O)[C@H](CCCNC(=N)N)NC(=O)[C@H](CCCNC(=N)N)NC(=O)CCCCCNC(=O)[C@@H](N)CCCNC(=N)N)C(=O)NCCCCCC(=O)NCCC(=O)O |  | broth microdilution | 168, Mueller-Hinton broth | 16 to 18 h, 37 °C |  | MIC | 12 µM (≈ 22.9 µg/mL) |
| C[C@]1(CO)Cc2ncn(-c3ccc(C#N)c(Cl)c3)c2C(=O)O1 |  | aldosterone synthesis, inhibitor, item: potassium | healthy Japanese adults, urine | 40 mg, 0-24 h after first dose, multiple rising dose |  | urinary excretion | 32.3 mmol |
| CSCC[C@@H]1NC(=O)[C@H](Cc2c[nH]c3ccccc23)NC(=O)[C@@H](NC(=O)CCNC(=O)[C@H](CCC(N)=O)NC(=O)[C@@H]2CCCN2C(=O)[C@@H]2CCCN2C(=O)[C@H](CCCNC(=N)N)NC(=O)[C@H](CCCNC(=N)N)NC(=O)[C@H](CCCNC(=N)N)NC(=O)[C@H](CCC(N)=O)NC(=O)[C@H](CCCNC(=N)N)NC(=O)[C@H](CCCNC(=N)N)NC(=O)[C@H](CCCCN)NC(=O)[C@H](CCCCN)NC(=O)[C@H](CCCNC(=N)N)NC(=O)CN)CSSC[C@@H](C(=O)O)NC(=O)[C@H]([C@@H](C)O)NC(=O)CNC(=O)[C@H](CC(C)C)NC(=O)[C@H](Cc2c[nH]cn2)NC(=O)[C@H](CCCNC(=N)N)NC(=O)[C@@H]2CCCN2C(=O)[C@H](CO)NC1=O |  | immunohistochemistry, item: CSNK2A1 | NCI-H226 xenograft mouse, tumour tissue | intravenous, 10 mg/kg, day 16 |  | CK2α staining | 0.06 ± 0.014 IOD/area |
| C[C@H]1O[C@@H](O[C@H]2CC[C@@]3(C)[C@@H](CC[C@]4(C)[C@@H]3C=C[C@]35OC[C@@]6(CCC(C)(C)C[C@H]63)[C@@H](O)C[C@]54C)[C@]2(C)CO)[C@H](O)[C@@H](O[C@@H]2O[C@H](CO)[C@@H](O)[C@H](O)[C@H]2O)[C@H]1O |  |  | Mus musculus, pair-fed, AAV8-TBG-Null vector, plasma | oral, high dose, 5 h |  | total cholesterol | 2.37 mM and 2.57 mM and 2.03 mM and 2.54 mM and 3.06 mM |
| CN(CC(=O)O)C(=N)NP(=O)(O)O |  | binding, MIDAS equilibrium dialysis LC-MS | A2AR-BRIL thermostabilized | concentration not given | baseline: no-protein control | log2 fold change | -0.113 |
| CC[C@H](C)[C@@H]1NC(=O)[C@@H]2CCCN2C(=O)[C@H](CC(C)C)NC(=O)[C@H](CC(C)C)NC(=O)CNC(=O)[C@@H](NC(=O)[C@@H](NC(=O)[C@H](CC(=O)O)NC(=O)CNC(=O)[C@@H](NC(=O)[C@H](C)NC(=O)CNC(=O)[C@H](CCCCN)NC(=O)[C@H](CC(C)C)NC(=O)[C@H](CC(C)C)NC(=O)[C@H](CCCCN)NC(=O)CNC(=O)[C@@H](NC(=O)[C@@H](N)CC(C)C)C(C)C)C(C)C)C(C)C)CSSC[C@@H](C(=O)O)NC1=O |  | RNA-seq, item: Arg2 | mouse, traumatic brain injury model, frontal cortex and hippocampus | dose not given | baseline: TBI alone | log2 fold change | -2.61 |
| CC1Cc2cc3c(cc2C(c2ccc(N)cc2)=NN1)OCO3 (centres unmarked) | Plasmodium falciparum |  | 7G8 |  |  | IC50 | 12.6 µM |

Some of these lines once more:
| SMILES | tested on | test | system | conditions | how to read | endpoint | result |
| --- | --- | --- | --- | --- | --- | --- | --- |
| CC[C@H](C)[C@@H]1NC(=O)[C@@H]2CCCN2C(=O)[C@H](CC(C)C)NC(=O)[C@H](CC(C)C)NC(=O)CNC(=O)[C@@H](NC(=O)[C@@H](NC(=O)[C@H](CC(=O)O)NC(=O)CNC(=O)[C@@H](NC(=O)[C@H](C)NC(=O)CNC(=O)[C@H](CCCCN)NC(=O)[C@H](CC(C)C)NC(=O)[C@H](CC(C)C)NC(=O)[C@H](CCCCN)NC(=O)CNC(=O)[C@@H](NC(=O)[C@@H](N)CC(C)C)C(C)C)C(C)C)C(C)C)CSSC[C@@H](C(=O)O)NC1=O |  | RNA-seq, item: Arg2 | mouse, traumatic brain injury model, frontal cortex and hippocampus | dose not given | baseline: TBI alone | log2 fold change | -2.61 |
